Results from different studies.
Each numbered part is a random draw from the data of one study; scales do not carry over between parts.

Series 1 — method: protein-binding microarray; form: double-stranded DNA, one strand shown; matrix: in vitro; concentration: 250 nM; notes: 60-bp whole probe; with: salmon DNA 0.4 mg/ml; baseline: random background probes; reading: higher = stronger binding; constant ends, left off below: GCCTAGCAC … GTCTTGATTCGCTTGACGCTGCTG
Target: Interferon regulatory factor 7, full length, phosphomimetic (IRF7, Homo sapiens, UniProt Q92985, residues 1-503, S101K/S471D/S472D/S475D/S476D/S477D/S483D/S484D/S487D)
Target sequence (chain): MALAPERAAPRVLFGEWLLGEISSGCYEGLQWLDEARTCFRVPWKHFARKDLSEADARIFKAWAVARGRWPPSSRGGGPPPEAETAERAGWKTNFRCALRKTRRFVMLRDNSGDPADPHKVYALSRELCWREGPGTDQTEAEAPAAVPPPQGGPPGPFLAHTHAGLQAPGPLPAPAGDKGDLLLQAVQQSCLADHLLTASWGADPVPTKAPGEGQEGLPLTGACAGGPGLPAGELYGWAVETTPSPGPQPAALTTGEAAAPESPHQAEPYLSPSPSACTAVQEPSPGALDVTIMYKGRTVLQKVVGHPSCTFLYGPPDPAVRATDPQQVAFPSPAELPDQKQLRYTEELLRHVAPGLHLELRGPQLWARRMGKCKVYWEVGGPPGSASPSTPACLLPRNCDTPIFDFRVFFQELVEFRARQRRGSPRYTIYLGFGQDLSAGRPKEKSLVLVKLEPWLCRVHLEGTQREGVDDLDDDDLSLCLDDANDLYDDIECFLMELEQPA
Strand | log fluorescence [z-score]
TTAGGTATCGGGTTTGGGTTAGTGCTA | 1.56
TCATGTTTTTTTCTATAACTGTGCTAG | 1.1
TTAGGACTGGGTATTGGTTAGTGCTAG | -0.228
CACTATTTAAGAACTATGCACGTGCTA | 0.542
TTAGGACTGGGACTGGGTCAGTGCTAG | -0.526
TCAGATATTAAACTGATACTGTGCTAG | 0.0139
TTAGGTCTCCTAATCCTTTAGTGCTAG | 0.233
TTAGGTCTCCGTATCCTTTAGTGCTAG | 0.604
TCAGCATACCATATCAGACTGTGCTAG | -0.418
TTTGGTTTCGGTTTCGGTTAGTGCTAG | 15.2
CTCTACCTCGTCATAGTAACGTGCTAG | 0.551
TCACATTTTCGTTTTTAACTGTGCTAG | 7.25
TAAGGACTGCTTCTCCTTTAGTGCTAG | 0.717
AGCTCCCTTTCTCTCTGTGAGTGCTAG | 0.659

Series 2 — method: protein-binding microarray; form: double-stranded DNA, one strand shown; matrix: in vitro; concentration: 0.8 µM; notes: whole 60-bp probe, no competitor; reading: higher = stronger binding
Target: Centromere-binding protein 1, full length, N-terminal tag (CBF1, Saccharomyces cerevisiae, UniProt P17106, residues 1-351)
Sequence of UniProt P17106 (whole entry, looked up): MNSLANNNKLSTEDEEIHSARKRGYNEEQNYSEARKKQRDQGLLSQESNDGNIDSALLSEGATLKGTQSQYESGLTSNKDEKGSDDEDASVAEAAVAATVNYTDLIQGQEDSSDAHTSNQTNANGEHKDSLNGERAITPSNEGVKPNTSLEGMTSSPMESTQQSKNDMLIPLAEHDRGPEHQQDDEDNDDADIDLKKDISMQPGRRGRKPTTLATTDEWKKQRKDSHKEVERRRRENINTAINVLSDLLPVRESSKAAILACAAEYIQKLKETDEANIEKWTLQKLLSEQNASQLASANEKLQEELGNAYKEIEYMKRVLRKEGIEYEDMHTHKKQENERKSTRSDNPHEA
Strand | fluorescence intensity
GAAGGAACTGTACAACACGTTCAACCAAAACTATAGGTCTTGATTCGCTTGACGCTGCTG | 552 a.u.
CTACGGGTGCAAAACCGGGTGACGGGACACCGCTTCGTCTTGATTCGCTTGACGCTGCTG | 467 a.u.
CTAATTCCGCTGGAAATCGTCACCAGCAGCTACTTCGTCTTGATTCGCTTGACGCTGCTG | 521 a.u.
GAACCCGCACCCCGTAGTCACGTTCGCCTTCGCTAGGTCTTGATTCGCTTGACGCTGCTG | 2300 a.u.
GAATGTTGTGGTGATGTCGTGATACCATAAAGTTAGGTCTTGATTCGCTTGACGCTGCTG | 902 a.u.
CTAGCGTATCCAGTTTACGTGTGATGGCAATGTTTCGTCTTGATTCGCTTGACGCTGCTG | 531 a.u.
CTATCATAATAAAGTGTGATGATGGAGGCAATGTTCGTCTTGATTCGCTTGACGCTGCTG | 559 a.u.
GAATTAAATCTTGCGCATGTGCAGATTTTAAAATAGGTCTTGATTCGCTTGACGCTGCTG | 2690 a.u.
CTATACTACGTAGGTCATCACTGTTATTGTTTTTTCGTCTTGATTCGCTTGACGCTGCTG | 532 a.u.
CTAGACGCGTTAGGCGTGGTGCTAAAGATGGCGTTCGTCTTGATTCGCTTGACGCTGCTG | 518 a.u.

Series 3 — method: RNA Bind-n-Seq; form: RNA; matrix: in vitro; concentration: 1 µM; notes: whole 134-nt RNA, ends assumed; with: 150 mM KCl; baseline: input library; reading: higher = stronger binding
Target: Ras GTPase-activating protein-binding protein 1, RRM domain (G3BP1, Homo sapiens, UniProt Q13283)
Sequence of UniProt Q13283 (whole entry, looked up): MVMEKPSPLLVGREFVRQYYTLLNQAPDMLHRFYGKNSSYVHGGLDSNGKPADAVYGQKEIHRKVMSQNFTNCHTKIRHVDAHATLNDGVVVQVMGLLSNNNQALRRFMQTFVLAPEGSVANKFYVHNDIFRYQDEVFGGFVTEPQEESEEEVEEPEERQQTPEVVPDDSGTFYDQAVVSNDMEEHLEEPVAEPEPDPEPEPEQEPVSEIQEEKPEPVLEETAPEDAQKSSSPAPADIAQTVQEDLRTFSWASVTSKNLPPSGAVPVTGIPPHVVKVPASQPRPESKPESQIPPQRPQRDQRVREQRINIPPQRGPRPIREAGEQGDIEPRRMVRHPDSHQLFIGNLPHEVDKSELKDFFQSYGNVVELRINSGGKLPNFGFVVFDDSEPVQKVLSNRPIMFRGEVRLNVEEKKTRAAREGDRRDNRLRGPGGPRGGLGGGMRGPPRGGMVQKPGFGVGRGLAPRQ
Strand | log2 enrichment
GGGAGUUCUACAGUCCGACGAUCGCAGGAAGUAAAAACAAAUGGAAAUGCUUCGGAUAGUGGCAGGGGUGGGGGUUAAAAAGGAAAGGGUGGGAUGGGAGUGGGUAAAGAGUUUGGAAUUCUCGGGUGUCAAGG | 1.1
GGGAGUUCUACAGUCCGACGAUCUAACUUUAGAGGAGGAUCUGAUGGAUAUGGCAGUGGACGUGGAUUUGGGGAUGGCUAUAAUGGGGAUGGAGGAGGACCUGGAGGUGGCAAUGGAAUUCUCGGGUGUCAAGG | -0.203
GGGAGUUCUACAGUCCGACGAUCGUCCUGUGCUACACAUCGUAUGUACCGAAUCGGGCCCCCCGGCCCCCCGGGCCCCCCGGAAAGUAUUAUGUUACGCCGUUCGGAUCUGCAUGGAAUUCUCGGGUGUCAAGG | -0.417
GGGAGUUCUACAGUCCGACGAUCCAAGUCCUGUGCUACACAUCGUAUGUACCGAAUCGGGAAAGGGUGGGUUUUUGGGAAAGUAUUAUGUUACGCCGUUCGGAUCUGCACUUCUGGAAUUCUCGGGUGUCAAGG | 0.789
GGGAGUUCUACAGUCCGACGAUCUCCUGUGCUACACAUCGUAUGUACCGAAUCAAAUUUUUUUAAACCCCCCCAAAUUUAAAAAAGUAUUAUGUUACGCCGUUCGGAUCUGCAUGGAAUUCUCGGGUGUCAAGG | -0.8
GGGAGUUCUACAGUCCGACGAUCCACAGACAACACGCACCCACACAGACACAGAGGGAAGGGGUUGGGAUGGGGACAGGGUGCACAGCAGGGCGGGGUAGGACCCCAAACCCUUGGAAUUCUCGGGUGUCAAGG | -0.29
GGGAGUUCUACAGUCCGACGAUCAGUCCUGUGCUACACAUCGUAUGUACCGAAUCGGGUUUUGGGGUUUUGGGUUUUGGGGAAAGUAUUAUGUUACGCCGUUCGGAUCUGCACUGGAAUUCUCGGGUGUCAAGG | 0.324
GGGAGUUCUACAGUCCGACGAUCCACAGACAACACGCACACACACAGACACAGAGGGAAGGGGUUGGGAUGGGGACAGGGUGCACAGCAGGGCGGGGUAGGACCCCAGCCCCUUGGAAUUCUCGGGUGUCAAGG | 0.345
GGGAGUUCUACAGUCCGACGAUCGUCCUGUGCUACACAUCGUAUGUACCGAAUCGGGGCCCCGGGCCCCGGGGCCCCGGGGAAAGUAUUAUGUUACGCCGUUCGGAUCUGCACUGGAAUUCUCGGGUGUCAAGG | -1.66

Single results of other studies
Molecule | target | test | test system | setting | how to read | quantity | result
PhoQ, residues 284 288 289 292 302 303 SLANIV | PhoP, residues 12 14 15 18 19 GQALL (Escherichia coli, UniProt P23836) | Sort-seq, measured: YFP reporter | E. coli | PhoQ-PhoP variant library, with: 10 µM Mg2+ | baseline: high Mg2+ state, higher = stronger signaling | fold induction | 13.8

Repeated from above (series 1):
Strand | log fluorescence [z-score]
TCATGTTTTTTTCTATAACTGTGCTAG | 1.1
TTAGGACTGGGTATTGGTTAGTGCTAG | -0.228
CACTATTTAAGAACTATGCACGTGCTA | 0.542
TTAGGACTGGGACTGGGTCAGTGCTAG | -0.526
